# Published values collected from several papers.
# Every numbered part comes from another study and shows a few of its results, in no order.

# Set 1 — technique: protein binding microarray; molecule type: double-stranded DNA, one strand shown; matrix: in vitro; tested at: not given; relative to: not given; direction: higher = stronger binding
# Target: Histone acetyltransferase KAT6A, winged helix 2, GST fusion (KAT6A, Homo sapiens, UniProt Q92794, residues 85-181)
# Notes: 8-mer, flanks averaged, mean of 2 arrays, mostly near background
# Construct (chain): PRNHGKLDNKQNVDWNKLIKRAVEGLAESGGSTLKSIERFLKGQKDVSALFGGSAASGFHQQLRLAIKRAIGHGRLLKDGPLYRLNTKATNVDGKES
Strand,E-score
TCTATAAA,-0.00277
AGGGGCCC,0.056
CTGATAAG,0.0499
ATCTTGAC,-0.0791
AGGCGGAT,0.19
ACATAAGC,-0.16
GCGACTCA,-0.0494
CGTCCCAG,-0.0524
CAGAGGCA,0.128
AAGGTGGC,-0.0561
AGCCCTGC,0.0206
CTGGCTTC,0.104
AGTTCGCG,0.152
ATTGGGAC,0.0443
CCTTACCG,0.0223
ACTACAAC,-0.0311
CTACGCAG,0.115
TACCACGA,0.0314
AGCCTCAT,-0.125
AACCGGTG,-0.0812
ATTACTAG,-0.183
CTCCGATA,-0.128
ATTCATTA,-0.0242
GCCTTAGA,0.0105
AGCTGTCA,-0.155

# Set 2 — technique: competition protein-binding microarray; molecule type: double-stranded DNA, one strand shown; matrix: in vitro; tested at: 2 µM; with: Pho4 competitor, 0.05 µM; direction: higher = stronger binding
# Target: Centromere-binding protein 1, full length, His-tagged (CBF1, Saccharomyces cerevisiae, UniProt P17106, residues 1-351)
# Sequence of UniProt P17106 (whole entry, looked up): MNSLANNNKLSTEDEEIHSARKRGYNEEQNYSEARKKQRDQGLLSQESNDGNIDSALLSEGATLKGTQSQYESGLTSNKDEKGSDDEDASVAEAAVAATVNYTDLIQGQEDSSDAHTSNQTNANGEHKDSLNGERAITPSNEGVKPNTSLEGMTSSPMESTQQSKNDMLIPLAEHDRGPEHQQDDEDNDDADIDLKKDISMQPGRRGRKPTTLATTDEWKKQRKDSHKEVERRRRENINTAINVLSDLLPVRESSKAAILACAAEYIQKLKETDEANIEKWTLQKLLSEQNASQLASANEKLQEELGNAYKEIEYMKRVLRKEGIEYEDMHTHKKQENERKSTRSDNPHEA
# Notes: whole 60-bp probe, lowest competitor level
Strand,fluorescence intensity
TTGAAGAGGATTTGACTCGTGTTGACAAGGCAATCAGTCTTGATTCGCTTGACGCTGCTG,81.1 a.u.
GTCTTGTCTCATTGTTGGGTGGGTGTCCCCACTTCAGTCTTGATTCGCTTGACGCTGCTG,97.7 a.u.
AACACCTTCCGACGGCGCGTGTTGGCAAAGCTGGGTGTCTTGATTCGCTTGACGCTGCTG,65.7 a.u.
CGTCCTAGTGATTGTCACAGAACTTCCATGAGGAAGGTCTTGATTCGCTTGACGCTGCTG,79 a.u.
GACAGTCTTAGTGTAGACGTGACGGTTCTTGGTGGCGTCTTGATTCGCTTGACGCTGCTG,89.3 a.u.
CGGGGTTAAGTTTGATCGGTGGGTGGCTTGCAGCAGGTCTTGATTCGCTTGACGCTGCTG,80 a.u.
AAAGCGGTAATTTGAGTAGTGGGTGCAGATATCTATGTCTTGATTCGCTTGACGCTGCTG,76.4 a.u.
CGGGGTTAAGTTTGTCACGTCACTTGCTTGCAGCAGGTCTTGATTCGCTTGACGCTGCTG,104 a.u.
CTTAAAATGTGTACGATGTGTACACATCAACCTACTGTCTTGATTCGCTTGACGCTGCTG,101 a.u.
AAATTACTAAGTTGAACCGTGGGTGACGCCGTATGAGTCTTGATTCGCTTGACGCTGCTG,69.1 a.u.
GTCTTGTCTCATTGTAGCGTGGGTGTCCCCACTTCAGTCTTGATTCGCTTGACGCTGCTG,70.5 a.u.
AAAAGAGGTACGTTGCGCGTGTTTCTAGGGAGAAGAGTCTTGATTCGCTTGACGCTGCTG,70.9 a.u.
CGTCCTAGTGATTGTCGAGTGGGTGCCATGAGGAAGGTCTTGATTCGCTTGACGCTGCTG,91.4 a.u.
AGCACCCAATTGGGCCATGTGTGTTTAACGCCGGGCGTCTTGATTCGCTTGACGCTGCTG,72 a.u.
ACATCATTCAAGCTAAGCGTGATGGCAAGGCTGCTGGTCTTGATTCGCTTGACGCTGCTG,101 a.u.
ATAACCACTAAATTCAAAAACACTTATTTTCAATATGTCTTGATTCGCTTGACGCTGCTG,114 a.u.
TGTGTCCGGAGAAACCTCGTGCGGAAAACAGCGCAAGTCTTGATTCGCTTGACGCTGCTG,94.4 a.u.
CTTTCCCGATCTTGAAGGGTGGGTGTAGCACATTTGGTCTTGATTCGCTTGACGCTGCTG,70.5 a.u.
GTCTTGTCTCATTGTCACAGAACTTTCCCCACTTCAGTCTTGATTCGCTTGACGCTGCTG,93.3 a.u.

# Set 3 — technique: RNA Bind-n-Seq; molecule type: RNA; matrix: in vitro; tested at: 365 nM; relative to: no-protein control; direction: higher = stronger binding
# Target: RNA binding protein fox-1 homolog 2, RRM domain, GST-SBP tag (RBFOX2, Homo sapiens, UniProt O43251-10, residues 100-194)
# Notes: natural RNA segment, single round, ends assumed
# Construct (chain): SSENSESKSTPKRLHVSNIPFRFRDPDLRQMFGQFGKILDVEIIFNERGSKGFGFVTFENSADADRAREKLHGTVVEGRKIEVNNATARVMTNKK
Strand,RBNS enrichment (R)
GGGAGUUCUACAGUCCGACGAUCAGCCGUUGUGUAAUUAUGAGCUGGGCAGCCCAGGUAUAGUUAGUUUUAGGCUUGUAGGUUUACUUCCUAGUUUCUUUAAACACACCUGAUGGUAAAGAACACAUUGAAAGUGGAAUUCUCGGGUGCCAA,0.609
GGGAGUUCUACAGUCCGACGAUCAGGAGUGCCACUUUCCAGCUCCACUUCAAAUUCCUUAAAAUAUAACUGAGAUUGCUGUGGGGAGGGAGGAGGGCAGAGGCUGCGGUUUGACUUUUUAAUUUUUCUUUUGUUGGAAUUCUCGGGUGCCAA,0.574
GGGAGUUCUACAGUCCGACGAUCUUAAUAUGCCUGCGGGGUAACGAUGUUACCACAGCAAUGGCAGCUUCAACUUACUUGUUCUAAGCACAGGGUUUUUUUUAUUUAGCAUCAAAGGACAUUUUUACUUUCUUUGGAAUUCUCGGGUGCCAA,0.23
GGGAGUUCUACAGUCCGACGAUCCCGGGGGCUCUGGGGUUAGAGCCUGUUGGAAACCAGAGUAGAUUAAAGUUAUUUAAGAAUAAAAAGAACUUUGGCUAUGAGAUGUAAUCACCUUGCCUUCCUCUCUAGCAUGGAAUUCUCGGGUGCCAA,1.82
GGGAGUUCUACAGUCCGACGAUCAGUUAAACUUUAUAAUUCUUUGCAAUUUUUAAGUAUUUUAAACUAAAUAUGCAAGGUUUGUUCUAUAUUAUGAUCACUAUUAAUCUUUUAUCACUCAAUUUUAAAACUAGUGGAAUUCUCGGGUGCCAA,0.846
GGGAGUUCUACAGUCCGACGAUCUUGAGUCUGGCAUCUUUCCCUCAGCUUAAUGCUUUUGAGUCAUUCAUGAUGUGUGCGUGUGGUUUGUUCCUUCUCCUUGCCGGGAAGUAUUUCAUUGCAUGGGCGUACUAUGGAAUUCUCGGGUGCCAA,1.34
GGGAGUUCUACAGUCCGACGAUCAUCUGAAACGGCAGCUUCUGAGGAAACCCUGACCAACGCCUCCCAGCGCAUCAGCAAGCUUGAGAGGAACGUGGAAGAGCUUAAGCGUAAAGCUGCCCAGAACUCUGGGGUGGAAUUCUCGGGUGCCAA,0.331
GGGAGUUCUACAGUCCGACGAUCCUCUGGCCUUCCCCAUAUUACACACCAGCACUUUAUAUAUUUUUGGCUCACAGGAGGAGUCUAGGGUAGGGACUGGGGUUUCUGCUUUGGGUAGUAGCCUUGUUAUUUGAUGGAAUUCUCGGGUGCCAA,1.35

# Set 4 — technique: protein-binding microarray; molecule type: double-stranded DNA, one strand shown; matrix: in vitro; tested at: not given; direction: higher = stronger binding
# Target: Myc proto-oncogene protein, bHLH-zipper, MAX partner unstated (MYC, Homo sapiens, UniProt P01106, residues 368-449)
# Sequence of UniProt P01106 (368-449, looked up): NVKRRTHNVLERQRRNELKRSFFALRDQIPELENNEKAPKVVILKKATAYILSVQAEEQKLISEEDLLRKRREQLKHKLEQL
# Notes: k-mer, scored over probes, only values ≥0.25
Strand,E-score
ATGTGTTC,0.272
TGCACACA,0.283
AGGCATGG,0.385
ATGGTGGG,0.255
CTGTCCAC,0.297
CAGGTGAC,0.347
ACATGGAT,0.292
CATGGGCA,0.311
CACATGCG,0.468
CGCACCGC,0.285
CGTGTGTA,0.367
CATGAGGG,0.434
CCGCACGA,0.307
ACCCACAT,0.269
CACGCCAA,0.263
AACATGCC,0.326
CCATGAGA,0.277
CATGCCAA,0.345
ACGGCATG,0.416
ACATGTTC,0.31
CACCCATG,0.353
CGTGTCGA,0.35
AAAACACG,0.29
ACGTGCAT,0.428
ATGTGTGA,0.282

# For quick reference, copied from above (set 2):
Strand,fluorescence intensity
AAAGCGGTAATTTGAGTAGTGGGTGCAGATATCTATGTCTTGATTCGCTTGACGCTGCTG,76.4 a.u.
CGGGGTTAAGTTTGTCACGTCACTTGCTTGCAGCAGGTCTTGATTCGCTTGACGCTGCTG,104 a.u.
CTTAAAATGTGTACGATGTGTACACATCAACCTACTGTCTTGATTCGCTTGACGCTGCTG,101 a.u.
AAATTACTAAGTTGAACCGTGGGTGACGCCGTATGAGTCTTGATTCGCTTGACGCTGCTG,69.1 a.u.
GTCTTGTCTCATTGTAGCGTGGGTGTCCCCACTTCAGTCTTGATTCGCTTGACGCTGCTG,70.5 a.u.
AAAAGAGGTACGTTGCGCGTGTTTCTAGGGAGAAGAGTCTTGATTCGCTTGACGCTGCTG,70.9 a.u.
CGTCCTAGTGATTGTCGAGTGGGTGCCATGAGGAAGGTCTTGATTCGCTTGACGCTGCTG,91.4 a.u.
AGCACCCAATTGGGCCATGTGTGTTTAACGCCGGGCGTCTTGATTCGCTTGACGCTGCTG,72 a.u.
ACATCATTCAAGCTAAGCGTGATGGCAAGGCTGCTGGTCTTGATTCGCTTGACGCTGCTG,101 a.u.
